# Results from different studies.
# Each numbered part is a random draw from the data of one study; scales do not carry over between parts.
# Sequence of UniProt P28223 (whole entry, looked up): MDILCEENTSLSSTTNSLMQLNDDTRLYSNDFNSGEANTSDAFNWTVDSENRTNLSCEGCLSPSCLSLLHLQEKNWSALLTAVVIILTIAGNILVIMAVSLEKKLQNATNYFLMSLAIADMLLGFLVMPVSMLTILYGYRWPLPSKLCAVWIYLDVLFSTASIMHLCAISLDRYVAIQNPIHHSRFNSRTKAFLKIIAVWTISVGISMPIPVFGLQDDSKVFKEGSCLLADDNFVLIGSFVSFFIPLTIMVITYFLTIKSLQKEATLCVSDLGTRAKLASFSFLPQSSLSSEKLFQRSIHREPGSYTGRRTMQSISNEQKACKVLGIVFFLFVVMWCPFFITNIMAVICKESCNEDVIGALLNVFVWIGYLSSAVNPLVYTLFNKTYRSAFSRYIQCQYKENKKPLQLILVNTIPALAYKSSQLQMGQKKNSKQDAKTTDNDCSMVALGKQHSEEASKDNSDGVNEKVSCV

# Series 1 — Compound: C=CCc1ccc(O)c(-c2cc(CC=C)ccc2O)c1; read-out: chloride current; method: whole-cell voltage clamp
# ANO1 del476-501/R561A: Anoctamin-1 (ANO1, Homo sapiens, UniProt Q5XXA6, del476-501/R561A)
# Sequence of UniProt Q5XXA6 (whole entry, unmodified, looked up): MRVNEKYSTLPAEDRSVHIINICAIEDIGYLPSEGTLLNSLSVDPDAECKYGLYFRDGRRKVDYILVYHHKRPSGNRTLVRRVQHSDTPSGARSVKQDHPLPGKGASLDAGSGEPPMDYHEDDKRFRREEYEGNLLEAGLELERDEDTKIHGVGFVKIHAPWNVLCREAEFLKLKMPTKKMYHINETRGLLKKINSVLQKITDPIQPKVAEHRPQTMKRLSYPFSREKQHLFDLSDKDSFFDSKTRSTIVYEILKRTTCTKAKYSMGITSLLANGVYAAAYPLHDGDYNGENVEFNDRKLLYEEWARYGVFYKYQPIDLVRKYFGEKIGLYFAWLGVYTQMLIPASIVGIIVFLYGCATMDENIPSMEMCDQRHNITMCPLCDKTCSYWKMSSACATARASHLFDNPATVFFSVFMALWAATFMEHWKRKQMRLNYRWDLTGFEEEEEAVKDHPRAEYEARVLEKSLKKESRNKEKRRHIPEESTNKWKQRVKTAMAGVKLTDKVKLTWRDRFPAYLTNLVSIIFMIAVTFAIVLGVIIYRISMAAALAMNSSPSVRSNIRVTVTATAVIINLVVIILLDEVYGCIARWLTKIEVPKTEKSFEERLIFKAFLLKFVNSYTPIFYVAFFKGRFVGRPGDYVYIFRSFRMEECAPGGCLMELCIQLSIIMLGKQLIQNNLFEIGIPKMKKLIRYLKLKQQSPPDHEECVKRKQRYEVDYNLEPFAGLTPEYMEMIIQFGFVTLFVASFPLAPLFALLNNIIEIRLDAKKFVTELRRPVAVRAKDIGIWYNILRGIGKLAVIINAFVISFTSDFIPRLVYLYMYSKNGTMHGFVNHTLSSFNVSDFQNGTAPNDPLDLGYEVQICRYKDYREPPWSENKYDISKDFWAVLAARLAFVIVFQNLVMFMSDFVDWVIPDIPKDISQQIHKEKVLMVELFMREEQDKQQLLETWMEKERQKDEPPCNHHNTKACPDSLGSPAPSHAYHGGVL
# ANO1 del476-501/E650A: Anoctamin-1 (ANO1, Homo sapiens, UniProt Q5XXA6, del476-501/E650A)
target,assay,setting,IC50
ANO1 del476-501/R561A,,membrane voltage 40 mV,23 µM
ANO1 del476-501/E650A,,membrane voltage 80 mV,17.1 µM
"Anoctamin-1 (ANO1, Homo sapiens, UniProt Q5XXA6, del476-501/E649K)",inhibitor,E623K mutant at -60 mV,140 µM
"Anoctamin-1 (ANO1, Homo sapiens, UniProt Q5XXA6, del476-501/R541D)",inhibitor,R515D mutant at 60 mV,203 µM
ANO1 del476-501/R561A,,membrane voltage 60 mV,24.7 µM
"Anoctamin-1 (ANO1, Homo sapiens, UniProt Q5XXA6, del476-501/L548A)",,membrane voltage -100 mV,54.7 µM
ANO1 del476-501/E650A,,membrane voltage -60 mV,25.3 µM
"Anoctamin-1 (ANO1, Homo sapiens, UniProt Q5XXA6, del476-501/F623A)",,membrane voltage -40 mV,41.5 µM

# Series 2 — read-out: enzyme activity; action: inhibitor; concentration: 0.5 µM; baseline: control
# Target: Serine/threonine-protein kinase PAK 4 (PAK4, Homo sapiens, UniProt O96013)
# Sequence of UniProt O96013 (whole entry, looked up): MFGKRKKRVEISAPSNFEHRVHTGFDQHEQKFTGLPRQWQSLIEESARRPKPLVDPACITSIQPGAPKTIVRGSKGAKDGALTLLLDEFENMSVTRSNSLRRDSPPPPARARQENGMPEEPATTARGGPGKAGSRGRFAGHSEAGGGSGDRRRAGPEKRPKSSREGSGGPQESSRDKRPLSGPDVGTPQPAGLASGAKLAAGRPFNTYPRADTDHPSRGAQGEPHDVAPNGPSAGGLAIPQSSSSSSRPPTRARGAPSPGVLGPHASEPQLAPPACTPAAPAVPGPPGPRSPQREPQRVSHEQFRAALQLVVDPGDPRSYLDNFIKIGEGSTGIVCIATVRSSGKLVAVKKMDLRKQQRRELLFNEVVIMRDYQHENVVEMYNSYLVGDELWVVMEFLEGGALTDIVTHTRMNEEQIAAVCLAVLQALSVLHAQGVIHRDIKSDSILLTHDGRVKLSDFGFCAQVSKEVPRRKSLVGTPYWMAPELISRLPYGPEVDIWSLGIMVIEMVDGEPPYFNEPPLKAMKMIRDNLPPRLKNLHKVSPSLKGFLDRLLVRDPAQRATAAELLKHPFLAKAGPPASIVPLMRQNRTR
SMILES,remaining activity [%]
Cc1cc(Nc2nc(-c3ccccc3)nc3ccccc23)n[nH]1,84.2
Cc1ccc(NC2=CC(=O)c3sc(C)nc3C2=O)cc1,105
Nc1nc(Nc2ccc(S(N)(=O)=O)cc2)nn1C(=O)c1c(F)cccc1F,90
CC[n+]1c(/C=C/N(C)c2ccccc2)n(-c2ccccc2)c2ccc(-c3nc4ccccc4s3)cc21,109
Oc1ccc(Nc2nc(-c3ccc(Cl)cc3)cs2)cc1,102
CC(C)(C)n1nc(Cc2cccc3ccccc23)c2c(N)ncnc21,94.4
CCc1[nH]c(-c2ccc(OC)cc2)nc1-c1ccncc1,118
COc1ccc(S(=O)(=O)N(CCO)c2ccccc2CN(C)CC=Cc2ccc(Cl)cc2)cc1,101

# Other studies, line by line
Molecule,target,assay,system,setting,quantity,value
KYFDDVTAF,"HLA class I histocompatibility antigen, C alpha chain, allele C*04:01 (Homo sapiens, UniProt P10321)",peptide-MHC binding,peptide,concentration not given,binding,inactive
O=C(NCc1ncc(C(F)(F)F)cc1Cl)c1ccc2c(c1)C1(CCS(=O)(=O)CC1)[C@H](C1CC1)N2S(=O)(=O)c1ccc(F)cc1,"5-hydroxytryptamine receptor 2A (HTR2A, Homo sapiens, UniProt P28223)",ligand displacement,,10 µM,inhibition,-4.7%

# Excerpt of the above (series 2):
SMILES,remaining activity [%]
CC[n+]1c(/C=C/N(C)c2ccccc2)n(-c2ccccc2)c2ccc(-c3nc4ccccc4s3)cc21,109
Nc1nc(Nc2ccc(S(N)(=O)=O)cc2)nn1C(=O)c1c(F)cccc1F,90
